# Literature values that unrelated publications cite.
# Lines come from different studies, so protocols differ. Numbers after ± are the reported error.
# UniProt Q7L7X3, sequence (whole entry, looked up): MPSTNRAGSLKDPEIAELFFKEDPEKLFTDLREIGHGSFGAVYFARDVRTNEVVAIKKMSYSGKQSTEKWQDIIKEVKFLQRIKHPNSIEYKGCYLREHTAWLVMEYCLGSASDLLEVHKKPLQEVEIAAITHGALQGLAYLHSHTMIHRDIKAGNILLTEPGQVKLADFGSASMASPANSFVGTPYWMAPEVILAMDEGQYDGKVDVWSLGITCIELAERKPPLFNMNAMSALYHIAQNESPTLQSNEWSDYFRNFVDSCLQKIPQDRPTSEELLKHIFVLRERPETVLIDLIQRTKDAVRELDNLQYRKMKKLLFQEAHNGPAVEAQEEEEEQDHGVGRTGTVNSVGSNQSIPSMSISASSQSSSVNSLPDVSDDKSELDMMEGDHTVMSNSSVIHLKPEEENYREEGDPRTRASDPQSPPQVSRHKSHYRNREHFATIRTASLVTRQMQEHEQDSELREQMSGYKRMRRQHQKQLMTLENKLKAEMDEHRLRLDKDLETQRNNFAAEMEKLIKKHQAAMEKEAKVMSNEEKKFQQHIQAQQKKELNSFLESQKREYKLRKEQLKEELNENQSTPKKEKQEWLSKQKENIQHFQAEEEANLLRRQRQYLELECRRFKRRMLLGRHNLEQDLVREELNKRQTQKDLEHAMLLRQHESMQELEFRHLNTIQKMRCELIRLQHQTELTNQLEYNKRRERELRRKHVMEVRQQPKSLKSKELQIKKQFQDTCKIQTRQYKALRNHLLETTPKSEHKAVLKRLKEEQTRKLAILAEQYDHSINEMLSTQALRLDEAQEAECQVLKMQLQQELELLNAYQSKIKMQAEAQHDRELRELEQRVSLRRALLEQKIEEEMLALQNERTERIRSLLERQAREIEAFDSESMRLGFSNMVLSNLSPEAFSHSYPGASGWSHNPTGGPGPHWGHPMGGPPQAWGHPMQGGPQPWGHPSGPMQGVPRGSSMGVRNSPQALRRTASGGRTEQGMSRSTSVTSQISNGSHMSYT
SMILES,target or system,assay,system,setting,scale,endpoint,value
Nc1cc(C(F)(F)F)c(-c2nc(N3CCOCC3)nc(N3CCOCC3)n2)cn1,"TAOK1 (Homo sapiens, UniProt Q7L7X3)",enzyme activity,,10 µM,reference: untreated,remaining activity,86%
CCCN(CCC)CCc1cccc2c1CC(=O)N2,,,plasma,"concentration not given, total concentration",,Cmax,141 nM
Cc1nc(Nc2ncc(C(=O)Nc3c(C)cccc3Cl)s2)cc(N2CCN(CCO)CC2)n1,,,plasma,"concentration not given, total, steady state",,Cmax,130 nM
Cn1c(=O)c2[nH]cnc2n(C)c1=O,,,plasma,"concentration not given, total, literature data",,Cmax,16400 nM
C=C(CC)C(=O)c1ccc(OCC(=O)O)c(Cl)c1Cl,,,plasma,concentration not given,,Cmax,30900 nM
CC(C)(C)c1cc(C(C)(C)C)c(NC(=O)c2c[nH]c3ccccc3c2=O)cc1O,,,"non-pregnant cystic fibrosis patients, plasma",dose not given,,Cmax,1200 ng/mL
COc1ccc(CCN2CCC(Nc3nc4ccccc4n3Cc3ccc(F)cc3)CC2)cc1,,,plasma,"concentration not given, total, steady state",,Cmax,2 nM
O=C(O)CCc1nc(-c2ccccc2)c(-c2ccccc2)o1,,,plasma,concentration not given,,Cmax,501000 nM
N[C@@H]1c2cccnc2[C@H](OC(=O)N2CCC(n3c(=O)[nH]c4ncccc43)CC2)CC[C@H]1c1cccc(F)c1F,,,plasma,75 mg,,Cmax,1200 nM
CN[C@H]1CC[C@@H](c2ccc(Cl)c(Cl)c2)c2ccccc21,,,plasma,"concentration not given, total concentration",,Cmax,83.3 nM
COc1cc(N2CCC(N3CCN(C)CC3)CC2)ccc1Nc1ncc(Cl)c(Nc2ccccc2P(C)(C)=O)n1,,,healthy subjects,"180 mg, single dose alone, rifampin study",,Cmax,826 ng/mL
O=C(O)c1cc(-c2ccc(F)cc2F)ccc1O,,,plasma,concentration not given,,Cmax,496000 nM
COc1cc(N)c(Cl)cc1C(=O)NC1CCN(CCCOc2ccc(F)cc2)CC1OC (centres unmarked),,,plasma,"concentration not given, total, steady state",,Cmax,90 nM
CNCC[C@@H](Oc1ccccc1C)c1ccccc1,,,plasma,"concentration not given, total, literature data",,Cmax,2780 nM
CC[C@H](C)C(=O)O[C@H]1C[C@@H](C)C=C2C=C[C@H](C)[C@H](CC[C@@H]3C[C@@H](O)CC(=O)O3)[C@H]21,,,plasma,"concentration not given, total, steady state",,Cmax,100 nM
Nc1c(Br)cc(Br)cc1CN[C@H]1CC[C@H](O)CC1,,,plasma,"concentration not given, total, literature data",,Cmax,45 nM
CC(C)c1c(C(=O)Nc2ccccc2)c(-c2ccccc2)c(-c2ccc(F)cc2)n1CC[C@@H](O)C[C@@H](O)CC(=O)O,,,plasma,"concentration not given, total, steady state",,Cmax,30 nM
CCC(=O)NC[C@@H]1C[C@H]1c1cccc2c1CCO2,,,plasma,"concentration not given, total concentration",,Cmax,235 nM
CS(=O)(=O)CCNCc1ccc(-c2ccc3ncnc(Nc4ccc(OCc5cccc(F)c5)c(Cl)c4)c3c2)o1,,,plasma,"concentration not given, total, steady state",,Cmax,4200 nM
CCCCC[C@H](O)CC[C@@H]1[C@H]2Cc3cccc(OCC(=O)O)c3C[C@H]2C[C@H]1O,,,non-Japanese healthy adults,18 µg,,Cmax,0.35 ± 0.14 ng/mL

# Repeated from above:
SMILES,target or system,assay,system,setting,scale,endpoint,value
O=C(O)CCc1nc(-c2ccccc2)c(-c2ccccc2)o1,,,plasma,concentration not given,,Cmax,501000 nM
CC(C)c1c(C(=O)Nc2ccccc2)c(-c2ccccc2)c(-c2ccc(F)cc2)n1CC[C@@H](O)C[C@@H](O)CC(=O)O,,,plasma,"concentration not given, total, steady state",,Cmax,30 nM
N[C@@H]1c2cccnc2[C@H](OC(=O)N2CCC(n3c(=O)[nH]c4ncccc43)CC2)CC[C@H]1c1cccc(F)c1F,,,plasma,75 mg,,Cmax,1200 nM
